Experimental data from different studies.
Numbered parts are unrelated; each lists some results of a single study. Positions count from the first letter of the parent shown.

Series 1
Target: CCNB3, cyclin fold, Cln2 fusion (human)
Method: yeast growth competition, sequencing
Medium: yeast
Setting: weak parent motif
Baseline: not given
Direction: higher = stronger binding
Starting sequence: RB1 docking peptide (human); PKPLKKLRFDIEG
Variant	normalised enrichment score
RKPLKKLRFDIEG [P1R]	0.0126
PKPLKKLRYDIEG [F9Y]	-0.349
PKPLWKLRFDIEG [K5W]	0.245
PKPLKGLRFDIEG [K6G]	0.201
PKPLKKLRFDIIG [E12I]	0.749
PKPLKKLRFDIEY [G13Y]	-0.247
PKPLKKLRFDIPG [E12P]	0.434
PKPLKKLVFDIEG [R8V]	0.564

Series 2
Target: ABI1, truncated, D143A, DHFR fusion (Arabidopsis thaliana)
Method: DHFR PCA, deep sequencing
Medium: yeast
Setting: methotrexate growth selection, single substitutions
Together with: (+)-ABA 0.39 µM
Baseline: wild-type fitted maximum
Direction: higher = stronger binding
Starting sequence: PYL1, truncated, DHFR fusion (Arabidopsis thaliana); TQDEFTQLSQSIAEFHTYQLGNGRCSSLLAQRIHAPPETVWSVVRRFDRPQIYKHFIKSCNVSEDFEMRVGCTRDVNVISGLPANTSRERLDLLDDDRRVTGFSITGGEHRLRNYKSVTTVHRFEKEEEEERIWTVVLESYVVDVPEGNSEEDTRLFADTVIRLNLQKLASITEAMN
Variant	relative binding score
E125V	59.3%
R155W	-10%
T17V	-0.334%
R132T	62.2%
S140R	13.7%
Q2I	70.4%
L93H	17.6%
S9T	46.6%
G23L	3.13%
T73W	25.2%
S171K	57%

Series 3
Target: Histone acetyltransferase KAT6A, winged helix 1, GST fusion (KAT6A, Homo sapiens, UniProt Q92794, residues 1-85)
Method: protein binding microarray
Molecule type: double-stranded DNA, one strand shown
Medium: in vitro
Tested at: not given
Setting: 8-mer, flanks averaged, mean of 2 arrays, mostly near background
Baseline: not given
Direction: higher = stronger binding
Construct (chain): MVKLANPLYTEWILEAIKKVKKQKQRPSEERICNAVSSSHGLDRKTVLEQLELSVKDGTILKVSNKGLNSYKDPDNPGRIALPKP
Oligonucleotide	E-score
AATCCCCA	-0.252
ATCGGTCC	0.137
CGCTCAAC	0.232
CAATGCAG	-0.0504
TAGTCATA	-0.0966
ATCTGGGG	-0.284
AAGGAAGG	-0.15
CCAGACGA	-0.172
CAATACGG	0.235

Mixed results
Molecule	target	test	test system	setting	how to read	endpoint	result
PhoQ, residues 284 288 289 292 302 303 AGHLVA	PhoP, residues 12 14 15 18 19 NQGLL (Escherichia coli, UniProt P23836)	Sort-seq, measured: YFP reporter	E. coli	PhoQ-PhoP variant library, together with: 10 µM Mg2+	baseline: high Mg2+ state, higher = stronger signaling	fold induction	3.24

Excerpt of the above (series 1):
Variant	normalised enrichment score
RKPLKKLRFDIEG [P1R]	0.0126
PKPLKKLRYDIEG [F9Y]	-0.349
